Measured values pooled from the literature.
Each line is one published result; not all experiments were run side by side. Values joined by “and” are separate records of one study, mostly repeats; a detail may differ. ± marks the error that the study gave.

SMILES | test | test system | setting | scale | endpoint | value
O=C1Nc2ccc3ncsc3c2/C1=C/Nc1ccc2c(c1)CS(=O)(=O)C2 | – | octanol/buffer | 67 µM, pH 7.4 | – | logD | 2.65
O=C(Nc1ccc(OC(F)(F)Cl)cc1)c1cnc(N2CC[C@@H](O)C2)c(-c2ccn[nH]2)c1 | per treatment cycle, item: amylase increase | human patients | oral, dose not given, 28 day cycle, dose-finding study | – | grade ≥3 event rate | 0.6%
CNC(=O)c1ccc(-c2cnc3ncc(Cc4ccc5ncccc5c4)n3n2)cc1F | – | human, moderate NCI classification, plasma | oral, 200 mg, adjusted geometric mean | – | Cmax | 1940 ng/mL
CNC(=O)c1ccc(-c2cnc3ncc(Cc4ccc5ncccc5c4)n3n2)cc1F | – | Japanese patients | oral, 400 mg twice daily, any grade | – | Photosensitivity patients | 0%
CN1CCCC1CCNS(=O)(=O)c1ccc2c(c1)CN(CC1CCCCC1)CC2 (centres unmarked) | – | wild-type mouse, plasma | oral in diet, 0.0002% in diet, 6 months | – | Cmin | 0.148 ng/mL
CCN1/C(=C/C(C)=O)Sc2ccc(F)cc21 | – | cynomolgus monkey | oral, 10 mg/kg, 24 h post-dose | – | QT interval | 261 ± 12 ms
Cc1ccc([C@@H]2COC[C@H](c3ccc(-c4ccccc4)cc3)N2)cn1 | shake-flask, 1-octanol/buffer | – | pH 7.4 | – | logD | > 4.7
C=CC(=O)NC1CCN(c2ncc3ncnc(Nc4ccc(Oc5ccc6c(c5)ncn6C)c(C)c4)c3n2)CC1 | – | human, male, plasma | oral, 30 mg, fed | baseline: fasted | AUC0-tz reduction | 26%
CCOc1c([C@H](C)n2nc(C)c3c(N)ncnc32)cc(Cl)c(F)c1[C@@H]1CNC(=O)C1 | – | previously treated B-cell malignancy patients | oral, 5 to 45 mg once daily, across doses and timepoints | – | highest LSM ΔQTcF | 4.75 ms
Fc1ccc(-c2nc(-c3ccc4ccccc4c3F)[nH]c2-c2ccncc2)cc1 | PAMPA | – | 16 h | – | membrane retention | 87.5 ± 1.8%
CC(C)(C(=O)N1CCOc2c(C#N)cncc2C1)C(F)F | item: infections and infestations | human | oral, 15 mg twice daily, 14 days, multiple ascending dose | – | subjects with adverse event | 0%
[O]=[Co].[O]=[Co][O][Co]=[O] | – | rat, male, urine, 24-h collection | oral gavage, single, 300 mg/kg (220 mg Co/kg), day 2, vehicle 0.5% HPMC | – | creatinine-corrected cobalt concentration | 0.08 µg/µmol creatinine
COc1cc2nccc(Oc3ccc(NC(=O)NC4CC4)c(Cl)c3)c2cc1C(N)=O | – | human liver microsomes | 30 min, pH 7.4 | – | Km | 27.8 µM
COc1ccc2c(=O)n(C)c(-c3ccccc3)nc2c1 | – | Sprague-Dawley rat, male, small intestine | oral, 30 mg/kg, 2 h | baseline: small intestine over plasma | tissue/plasma ratio | 2020
COc1cc(C(=O)N2CCC3(CC2)CC(=O)c2c(cnn2C(C)C)C3)cc(-c2ccc(C(=O)O)cc2)n1 | direct measurement | human, fasting serum | 100 mg once daily, day 13, adjusted geometric mean | – | LDL cholesterol change from baseline | -12%
Cc1ccc([C@@H]2O[C@H](CO)[C@@H](O)[C@H](O)[C@H]2O)cc1Cc1ccc(-c2ccc(F)cc2)s1 | – | Japanese type 2 diabetes patients | 25 mg, day 2, 24 h urine collection | baseline: baseline | urinary magnesium excretion change | 9.74 mg
C[C@@H](N)C1CCN(S(=O)(=O)c2cccc3cnccc23)CC1 | – | healthy volunteers | 75 mg, fasted | – | participants with dizziness | 16.7%
CCO[C@H]1CCN(Cc2c(OC)cc(C)c3[nH]ccc23)[C@H](c2ccc(C(=O)O)cc2)C1 | – | PNH patients, active haemolysis | oral, 200 mg, 8 weeks, treatment | – | incidence of abdominal discomfort | 0%
CC[C@H](C)CCCCC(=O)N[C@@H](CCN)C(=O)N[C@H](C(=O)N[C@@H](CCN)C(=O)N[C@H]1CCNC(=O)[C@H]([C@@H](C)O)NC(=O)[C@H](CCN)NC(=O)[C@H](CCN)NC(=O)[C@H](CC(C)C)NC(=O)[C@@H](Cc2ccccc2)NC(=O)[C@H](CCN)NC1=O)[C@@H](C)O | LC-MS/MS | normal renal function subjects, urine | IV, 0.75 mg/kg, 0-6 h, arithmetic mean | – | cumulative urinary excretion | 0.884 mg

SMILES | test | test system | setting | scale | endpoint | value
COc1ccc2c(c1)CN(C(=O)CCN1CCC(Cc3ccccc3)CC1)CC[S@@+]2[O-] | telemetry | conscious male beagle dogs | intravenous, NG, 24 h | – | PQ interval | 88 ± 9 ms
C[C@H]1CN(c2cccc(-c3ccc4ncnc(Nc5ncco5)c4c3)c2)CCO1 | – | human liver microsomes | – | – | CLint | 35 µL/min/mg
COc1ccc(NC(=O)CSc2nnc(-c3ccncc3)[nH]2)cc1 | – | octanol/buffer | pH 7.4 | – | logD | 1.94
CCOC(=O)N1C[C@@H](C2CCCCC2)N[C@@H](C(CC)CC)C1 | shake-flask, 1-octanol/buffer | – | pH 7.4 | – | logD | > 4.7
CC[C@H](C)[C@H](NC(=O)[C@H](Cc1ccccc1)NC(=O)[C@H](CCC(=O)O)NC(=O)[C@H](CCCCNC(=O)COCCOCCNC(=O)COCCOCCNC(=O)CC[C@H](NC(=O)CCCCCCCCCCCCCCCCC(=O)O)C(=O)O)NC(=O)[C@H](C)NC(=O)[C@H](C)NC(=O)[C@H](CCC(N)=O)NC(=O)CNC(=O)[C@H](CCC(=O)O)NC(=O)[C@H](CC(C)C)NC(=O)[C@H](Cc1ccc(O)cc1)NC(=O)[C@H](CO)NC(=O)[C@H](CO)NC(=O)[C@@H](NC(=O)[C@H](CC(=O)O)NC(=O)[C@H](CO)NC(=O)[C@@H](NC(=O)[C@H](Cc1ccccc1)NC(=O)[C@@H](NC(=O)CNC(=O)[C@H](CCC(=O)O)NC(=O)C(C)(C)NC(=O)[C@@H](N)Cc1cnc[nH]1)[C@@H](C)O)[C@@H](C)O)C(C)C)C(=O)N[C@@H](C)C(=O)N[C@@H](Cc1c[nH]c2ccccc12)C(=O)N[C@@H](CC(C)C)C(=O)N[C@H](C(=O)N[C@@H](CCCNC(=N)N)C(=O)NCC(=O)N[C@@H](CCCNC(=N)N)C(=O)NCC(=O)O)C(C)C | 12-lead Holter ECG | healthy humans | subcutaneous, 1.5 mg once weekly, 27 h, steady state | baseline: placebo | QTcF change from baseline | -1.1 ms
CN(C(=O)n1cnc(-c2cccnc2)c1)[C@H]1CC[C@H](O)CC1 | – | Wistar rat, pons | oral, 10 mg/kg/day of BIA 10-2474, 4 h, repeated 5 days | – | concentration | 38.1 ± 6.6 ng/g
O=C(COc1ccc(Cl)cc1)NC12CC(c3nnc([C@H]4C[C@@H](OC(F)(F)F)C4)o3)(C1)C2 | – | human both sexes | oral, 15 mg single dose | – | participants with TEAE | 50%
Cc1ccc(C(=O)N(CCCN)C(c2nc3snc(C)c3c(=O)n2Cc2ccccc2)C(C)C)cc1 (centres unmarked) | – | human patients | intravenous, 10 mg/day | – | grade ≥3 hyperbilirubinemia patients | 0%
C[Si](C)(C)O[Si](C)(C)C | – | air/water | concentration not given | – | enthalpy of phase change | 12.7 kcal/mol
NS(=O)(=O)c1ccc(NN=C2C(=O)Nc3ccc4[nH]nnc4c32)cc1 | – | octanol/buffer | 67 µM, pH 7.4 | – | logD | 1.65
NC1(C(=O)N[C@@H](CCO)c2ccc(Cl)cc2)CCN(c2nc[nH]c3nccc2-3)CC1 | – | metastatic CRPC patients | 480 mg b.i.d., grade 3 to 4, treatment-related, added: enzalutamide 160 mg daily | – | incidence of lower abdominal pain | 0%
O=C(O)CN1CCCN2CCN(Cc3ccccc3)CCCN(CC1)Cc1cccc(n1)C2 | – | 64Cu complex | 24 h, 70 °C, added: DOTA excess | – | intact complex | 95%
CNC(=O)c1cc(Oc2ccc(NC(=O)Nc3cc(C(C)(C)C)nn3-c3ccc4ncccc4c3)c(F)c2)ccn1 | item: worst grade 1 | human | oral, dose not given, cycles 1 and 2, Low AUC(0-4 h) subgroup | – | patients with visual abnormality AE | 20%
Cc1cc(NC2CCN(C(=O)OC3CCN(C(=O)/C=C/CN(C)C)C3)CC2)n2ncc(C(C)C)c2n1 (centres unmarked) | Phase I dose escalation CTCAE v4.0, item: dermatitis acneiform | patients with advanced solid tumours | dose not given, TIW dosing any grade | – | patients with adverse event | 0%
CNC(=O)c1ccc(-c2cnc3ncc(Cc4ccc5ncccc5c4)n3n2)cc1F | phase 1 clinical trial, item: blood bilirubin increased | dose escalation cohort | oral, dose not given, grade 3 or 4 | – | adverse event incidence | 11%
O=c1cc(-c2ccc(O)cc2)oc2c([C@@H]3OC[C@H](O)[C@H](O)[C@H]3O)c(O)c([C@@H]3O[C@H](CO)[C@@H](O)[C@H](O)[C@H]3O)c(O)c12 | UHPLC-MS/MS | C57BL/6J mouse, lungs | oral, dose not given | – | tissue concentration | 0.82 ng/g
C[C@H]1OC[C@H](C2CCCCC2)N[C@@H]1c1cccc(Cl)c1 | shake-flask, 1-octanol/buffer | – | pH 7.4 | – | logD | > 4.7
Cc1ccc(Sc2ccccc2N2CCNCC2)c(C)c1 | item: Thirst | healthy adult men | oral, 20 mg daily, 12 days | – | participants with TEAE | 0%
CC(C)(C)c1ccc([C@@H]2COC[C@H](C3CCCC3)N2)cc1 | shake-flask, 1-octanol/buffer | – | pH 7.4 | – | logD | > 4.7

SMILES | test | test system | setting | scale | endpoint | value
CNCc1ccc(-c2[nH]c3cc(F)cc4c3c2CCNC4=O)cc1 | item: Diarrhea | human patients | oral, 600 mg twice daily, grade 3 | – | patients with adverse event | 0%
COc1cc(N2CCC3(CCN(C)CC3)CC2)ccc1Nc1ncc(Cl)c(Nc2ccccc2P(C)(C)=O)n1 | population PK model | human | oral, base structural model | – | V1/F | 339 L
Cc1cc(-c2nccc3c2ccn3CC(=O)Nc2ccc(-c3cnccn3)cn2)ccn1 | – | healthy human volunteers | oral, 20 mg single dose, single ascending dose | – | general disorder TEAEs | 16.7%
C[C@@H](Oc1ccc(S(C)(=O)=O)cc1C(=O)N1C[C@@H]2C[C@]2(c2cc(C(F)(F)F)on2)C1)C(F)(F)F | – | elderly humans, plasma | oral, 50 mg once daily, single dose, geometric mean | – | Vz/F | 384 L
CN1CCN(c2cccc3c2CCN(C(=O)/C=C/c2c(-n4cnnn4)ccc(Cl)c2F)[C@@H]3C(=O)Nc2ccc(C(=O)O)cc2)C(=O)C1 | – | healthy human subjects | intravenous infusion, 4 mg/h, 2 h | – | subjects with any adverse event | 33.3%
CSc1cc(C)nc(SC)c1NC(=O)CN1CCN(CCSc2nc3ccccc3[nH]2)CC1.Cl | – | mouse Crl:CD1 (ICR), female, cerebrum | intranasal, 10 µL of CA solution once daily for 7 days, 120 min after last dose, LLOQ 0.5 ng/g | – | tissue concentration | not detected
CCOC(=O)N1C[C@@H](c2ccccc2O)N[C@@H](c2cc(Cl)cc(Cl)c2)C1 | shake-flask, 1-octanol/buffer | – | pH 7.4 | – | logD | > 4.7
FC(F)(F)c1ccc(CNc2ccc(Cc3c[nH]c4ncc(Cl)cc34)cn2)cn1 | item: peripheral oedema | human, advanced solid tumours, non-TGCT cohort | oral, 1000 mg/day, any grade | – | treatment-related adverse events | 4%
O=C(N[C@H](Cc1c[nH]c2ccccc12)C(=O)Nc1ccncc1)c1ccc(N2CCN(c3ccc(F)cc3F)CC2)cc1F | – | Swiss Webster mouse, female, lung | oral, 50 mg/kg, 8 h, 20% Kolliphor vehicle | – | concentration | 20.7 µM
O=C(Nc1nc2cccc(-c3ccc(CN4CCS(=O)(=O)CC4)cc3)n2n1)C1CC1 | item: blood amylase increased | rheumatoid arthritis patients | oral, 75 mg once daily, 4 weeks, any relatedness | – | treatment-emergent adverse events | 0%
CC#CC(=O)N1CCC[C@H]1c1nc(-c2ccc(C(=O)Nc3ccccn3)cc2)c2c(N)nccn12 | – | MES buffer | 100 µM, 23 h, pH 5.5, 37 °C, added: cysteine 10 mM | – | cysteine adduct formation | 19%
C=CC(=O)Nc1cc(Nc2nccc(-c3cn(C)c4ccccc34)n2)c(OC)cc1N(C)CCN(C)C | UHPLC-MS/MS | human, plasma | oral, 80 mg once daily | – | trough concentration | 286 ng/mL and 223 ng/mL and 210 ng/mL and 248 ng/mL and 173 ng/mL and 249 ng/mL and 201 ng/mL
C=CC(=O)Nc1cc(Nc2nccc(-c3cn(C4CC4)c4ccccc34)n2)c(OC)cc1N(C)CCN(C)C | metabolism, substrate | rat liver microsomes | 40 min, 37 °C, added: NADPH 1 mM | – | Km | 5.25 µM
COc1cc2[nH]c(C)c(-c3cc4ccccc4s3)c(=O)c2cc1Cl | chromatographic | – | pH 7.4 | – | logD | 3.5
NC/C(=C\F)COc1cccc(Cn2c(=S)[nH]c(=O)c3[nH]cnc32)c1 | – | C57BL/6J mice, kidney | oral, 15 mg/kg single, 6 h | – | tissue concentration | 414 ng/mL
Cc1cc(Nc2ccc(S(F)(F)(F)(F)F)cc2)n2nc(C(C)(F)F)nc2n1 | 12-lead ECG and Holter | human, malaria patients | oral, dose not given, depends on dose and infection type | – | QTcF increase | ~10 ms
Cc1cc(C)c(CNC(=O)c2cc(Cl)c3c(c2C)O[C@@](C)([C@H]2CC[C@H](N(C)C)CC2)O3)c(=O)[nH]1 | CTCAE v4.0, item: abdominal pain | human relapsed/refractory NHL | oral, 200 mg once daily, onset after cycle 1 day 1, overall treatment period | – | patients with TEAE | 20.8%
O=C(/C=C/CCc1ccc(O)cc1)/C=C/c1ccc(O)cc1 | – | nude mouse MCF7 xenograft | 10 mg/kg, day 6 | – | body weight | 19.6 ± 1.55 g
